Experimental data gathered from unrelated publications.
Every numbered part comes from another study and shows a few of its results, in no order.

Sample 1 — method: RNA Bind-n-Seq; form: RNA; medium: in vitro; tested at: 100 nM; baseline: input RNA pool; reading: higher = stronger binding
Target: RING finger protein unkempt homolog, zinc fingers 1-6, SBP tag (UNK, Homo sapiens, UniProt Q9C0B0, residues 30-357)
UniProt Q9C0B0, sequence (30-357, looked up): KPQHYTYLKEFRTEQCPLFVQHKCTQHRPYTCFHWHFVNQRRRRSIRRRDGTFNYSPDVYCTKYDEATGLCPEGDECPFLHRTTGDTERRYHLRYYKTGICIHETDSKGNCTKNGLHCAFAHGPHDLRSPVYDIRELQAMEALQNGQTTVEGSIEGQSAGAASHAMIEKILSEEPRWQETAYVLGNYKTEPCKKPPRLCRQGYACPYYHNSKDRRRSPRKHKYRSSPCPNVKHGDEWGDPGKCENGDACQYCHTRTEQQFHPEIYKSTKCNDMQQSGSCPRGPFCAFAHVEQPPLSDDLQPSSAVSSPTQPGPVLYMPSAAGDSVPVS
Notes: RNA with constant flanks, vertebrate orthologous sites, ends assumed
Constant ends, left off below: GGGAGUUCUACAGUCCGACGAUC … CAACAGAGGAUUGAGCAUCA
Strand	bound/input enrichment
CCUACGUAAAAUAUUGGAUGCAGUGUAUAAAAAGGCAGUGACUUCAGCUUUAUAAAUAUAUGGCUAGUGUUAGAGUUAUCUACAUUUAUUUAAUCUUUUAGAUUGGAUUGUUUGCUAUUG	0.549 ratio
AUCUCUCAUUUUAUAUAUCCAAAAAUGACUUUCAAUUUUUAAAGAAUUGCUGGUUUUAAUUAGCUCUGCCCUCCUAAGAUGGUGGUAUAAUUCACCACAAAUAGCUGUCUAUCUGAAUUA	1.06 ratio
UUUUGUGAGGAGUGGGAAAGAUGAGAUUCUUCUCCCCCCGAGUAAAACUGACAAUUUCCUUUUAGUUCUAUCCUUAAAAACAAAGAUGCCCUUUUUUCUUAAUUGUGUGACGCCACUAUC	0.563 ratio
GUCAUCUGACUGGAUGAAGACUGUUCCAAGUUACAACCAAACAAAUAGCUCCAUGGACUUUAGAAAUUAUAUGAUGAGAGAUGAGACUCUGGAACCACUGCCCAAAAACUGGGAAAUGGC	1.07 ratio
UUACAGUCAUUGAUGGACUCUAUUUUUUUAUUAUUACUUGGACCUUGGUCGUUUUUAUACUAGCAAAAUGUCUUGUUUUAAUUUGUGUUUUUUGUGGGGAGGGAGGGAGUGAACUUGCUG	1.66 ratio
CUGCUUUCAGGUUGUGGCUAAUUGCCCCCCUUCCCAUCUUCCACUUUAAGUUCUUUCCUUUGCCCCCUCCAUAAUCCCUCUCUUAACUCAGACAGGUGUGGAGCAUUUUACUCAGUCAUU	0.532 ratio
GAGCUAAAGGAGAUAGCAUCUUUAUUUUUGUAUCAAAGAUAAAGGUUAUUUUGAAAUUAUUAGGAUUUUUACACAACUCUGAAACCUGUUGCUUUUUGUAAACAAAUUGUUUGCUCUUAG	1.2 ratio
UUGAGAACAGCUCUCCAAAUAGGAAUAGUAGUAAAAAAAAUAAGCAAAAUGAUAUUUGUAUAGAAAAAACAGAAGUUAAAUCAUGUAAAGUAAAUGCUGCCAACCUUCCAGGUCCUAAAG	1.11 ratio
UAAUUCCAUGGUUGAAGGGUCUGAAUUGAAAAAAGUUAGGUCCAAUUCUAGAAUUUACCACCGAUACUUUCUUUUGGAUGCAGAUAUGCAGUCUUUACGCUGGGAGCCUUCUAAAAAAGA	0.413 ratio
GUGUUGGUGCAGAGCGCUCUGUACCAGUGCUCAUCAUCCCUUCUUCAUACCAACUGUCCCUAGUUAUAGGAAUUUAAUAUUUUUAAAAGUUUUACAUUGCUGUAUAUUCAAAGAUUUGUU	0.91 ratio
UUCAGGCACAACUGACUGGUUCACAGCAUUCCUUACAUAGCUAUCUAUCAAAUGCAAGUGUAGUUAAUUUUCAGGAAACAAGCAGGCAGUCAUCUUUAUCCUGUAGCCCAAUUGGAGAUU	1.58 ratio

Sample 2 — method: RNA Bind-n-Seq; form: RNA; medium: in vitro; tested at: 365 nM; baseline: no-protein control; reading: higher = stronger binding
Target: RNA binding protein fox-1 homolog 2, RRM domain, GST-SBP tag (RBFOX2, Homo sapiens, UniProt O43251-10, residues 100-194)
Notes: natural RNA segment, single round, ends assumed
Constant ends, left off below: GGGAGUUCUACAGUCCGACGAUC … UGGAAUUCUCGGGUGCCAA
Construct (chain): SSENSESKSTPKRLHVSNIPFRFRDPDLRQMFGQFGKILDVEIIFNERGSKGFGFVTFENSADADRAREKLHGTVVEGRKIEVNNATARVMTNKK
Strand	RBNS enrichment (R)
UCUGCAAGCUGAGGGUGUUUGUUCUAGAUGAGUGUCUCAGGCCACCGGCAACUGCAUGUACCUCCUCCCUUUCUCAUUUCCAAUGAUGUACCCUGUACACGUGUUCAUGC	2.43
UCCCCUGCUAGAUGAUUCACCCACAAACCUUCCCACCCAGGUGUUCUCUGAAAGCUUAGCCUCAAGGGAACACCUAAAGAGCUCCCCUACAUAGACUCCUGCCUCCAGGU	1.04
AAAUCCCCAUAAAUAUCCAUCCCUUCCUAGAUGGCAUUAACUUUCAUUUUAGAUUUUAGGUGACUCAUAAUUCCCAUUCACUUAGCCUAUCAGAAAAGUCAUUGGCAGAC	0.536
UCAUGAUGGUAUGUGAAUAUGUGUGUAUGUUGCAAACAGGAAAUGCACUUGUAAACAUACGACAUGAUGUUAAAAUUGAAAGCAGGACUGAACUAACGUAUUCAAUAUUG	1.32
CGCACUGAGAACGCCUGCCAGCUUCCCCAUGCCCUCACUUGGUUUGUGUUUUAGGUUAAGUAGUCAAUGCCCACAUCACUUCACUGUCUCAAGACUGAGCACUUCACUAA	0.486
ACCAGCUUCUGGGGCUCACUGCAGUCUUCCCUGGGUCUUCCCUUCAAAUGCCCAUGGCGUUUAUCCUUCUCCCUCUCUAGAAAUGUACUCGACUGUUAUAACGAGGGAGU	0.296
UACCGAUGCUUAAUUUACAUUUUUGGAGUUGAAUAUUAUUCCGGUGCCUCCACCACCCCCAGCAGAAAAAAUAAGAUACUGAAAUAAGUUGAGUCAUUUCGCAAACAUUU	0.424
AAAUAUGCAAGCAUAUCACAAAUGUUCCUUGUCCUUUCAAAGUGCAUUUGUUCAUCAAGAUCAAUAGAAUCUUACCAGUGGGUAGGAAAGGAUCAUAUAAAAUAUGAAGA	0.37
GUGCAUAAAGUGAGCUUAAAACUUGCCACUGUUUAGUAAGUUAGCCCCCAUAGAAUGUGACCCUGUCUGCAGAGUCUCAUUUACCCCUCUUUUUCUCAUUGUCAUUUGUU	0.325
GGGUGACCAAAACAGUACAUCAGUUCCUGAGAUAUUCAAGCAAAUGCCCCCGAUAGCAUAGUGUGUGCCAACCGGUACACCUGACUCAGCAUUAGGAUCCUAUAACCAUG	0.297
CACAUCCUAGACCCAGUUCCAUAUACACUUCUUCAUCCCAAUACACAGGAAACAUGGAUAAGGAAGUUGGCAGAAGUCCAACUGUUUCCCAAUCAGUCAAAGGCAGCAAG	0.424
GCUCUUUAAGGUGCCUCUUCAGGGACACAGUGUGUGUCUGAUUGGGCUUCGCAUCAAAAGCCUGACGUUCCUGUCCCUCUUAUAGGGGGAGCUUUGGACACAGGACCAGU	0.204

Sample 3 — method: RNA Bind-n-Seq; form: RNA; medium: in vitro; tested at: 200 nM; notes: whole 134-nt RNA, ends assumed; together with: 150 mM KCl; baseline: input library; reading: higher = stronger binding
Target: Fragile X messenger ribonucleoprotein 1, C-terminal low-complexity region (Fmr1, Mus musculus, UniProt P35922)
Constant ends, left off below: GGGAGUUCUACAGUCCGACGAUC … UGGAAUUCUCGGGUGUCAAGG
Strand	log2 enrichment
UGCCCUCCGUGGAGUCUUUGUUUCGAAGUCCGAUAAAGGAAUCUCUAUUCCGGUCUUCUUCUAAAGAGUCUUUGGUACGAACAUCUUCCA	-1
GCAGGAAGUAAAAACAAAUGGAAAUGCUUCGGAAAAUGGCAGGGGUGGGGGUUGCUAAGGAAAGGGUGGGAUGGGAGUGGGUAAAGAGUU	0.437
UGCAGCAGCGCCAGGAAUCGAGGAUGGUAAAAUGACCCAGGGGAAGAAGAAGAAACGGGCCGCGAACCGCAGUAUCAUGCUGGCCAAGAA	0.121
CUCAAGUCCUGUGCUACACAUCGUAUGUACCGAAUCGGCCGGCCGGGGCCGGGGAAAGUAUUAUGUUACGCCGUUCGGAUCUGCACUUCC	-0.4
UUCCUCAAGUCCUGUGCUACACAUCGUAUGUACCGAAUCGGUGGUGGUGGGAAAGUAUUAUGUUACGCCGUUCGGAUCUGCACUUCCAGC	-0.136
CUCAAGUCCUGUGCUACACAUCGUAUGUACCGAAUCGGGUGGGUUUGGGUGGGAAAGUAUUAUGUUACGCCGUUCGGAUCUGCACUUCCA	1.22
AGUCCUGUGCUACACAUCGUAUGUACCGAAUCGGGCCCCCGGCCCCCGGGCCCCCGGAAAGUAUUAUGUUACGCCGUUCGGAUCUGCACU	-0.579
GUCCUGUGCUACACAUCGUAUGUACCGAAUCGGGAAAAAAAGGGUUUUUGGGAAAGGGAAAGUAUUAUGUUACGCCGUUCGGAUCUGCAC	-0.408
UCAAGUCCUGUGCUACACAUCGUAUGUACCGAAUCGGUGGUUUGGAAAAAAAGGAAAGUAUUAUGUUACGCCGUUCGGAUCUGCACUUCC	-0.447
AGUCCUGUGCUACACAUCGUAUGUACCGAAUCGGGAAAAGGGAAAAGGGGAAAAGGGGAAAGUAUUAUGUUACGCCGUUCGGAUCUGCAC	0.14
CUGUGCUACACAUCGUAUGUACCGAAUCGGGGAAAAAGGGGAAAAAAAGGGGUUUUUGGGGAAAGUAUUAUGUUACGCCGUUCGGAUCUG	-0.0143
AGUCCUGUGCUACACAUCGUAUGUACCGAAUCGGGUUUUUGGGUUUGGGAAAAAGGGAAAGUAUUAUGUUACGCCGUUCGGAUCUGCACU	-0.116
AAGUCCUGUGCUACACAUCGUAUGUACCGAAUCGGCCCCCGGCCCCCGGCCCCCGGAAAGUAUUAUGUUACGCCGUUCGGAUCUGCACUU	-0.104
UAACUUUAGUGGAGGAUCUGAUGGAUAUGGCAGUGGACGUGGAUUUGGGGAUGGCUAUAAUGGGUAUGGAGGAGGACCUGGAGGUGGCAA	0.284

Sample 4 — method: universal PBM; form: double-stranded DNA, one strand shown; medium: in vitro; tested at: 600 nM; reading: higher = stronger binding
Target: Sal-like protein 4, full length isoform A (SALL4, Homo sapiens, UniProt Q9UJQ4, residues 1-1053)
UniProt Q9UJQ4, sequence (whole entry, looked up): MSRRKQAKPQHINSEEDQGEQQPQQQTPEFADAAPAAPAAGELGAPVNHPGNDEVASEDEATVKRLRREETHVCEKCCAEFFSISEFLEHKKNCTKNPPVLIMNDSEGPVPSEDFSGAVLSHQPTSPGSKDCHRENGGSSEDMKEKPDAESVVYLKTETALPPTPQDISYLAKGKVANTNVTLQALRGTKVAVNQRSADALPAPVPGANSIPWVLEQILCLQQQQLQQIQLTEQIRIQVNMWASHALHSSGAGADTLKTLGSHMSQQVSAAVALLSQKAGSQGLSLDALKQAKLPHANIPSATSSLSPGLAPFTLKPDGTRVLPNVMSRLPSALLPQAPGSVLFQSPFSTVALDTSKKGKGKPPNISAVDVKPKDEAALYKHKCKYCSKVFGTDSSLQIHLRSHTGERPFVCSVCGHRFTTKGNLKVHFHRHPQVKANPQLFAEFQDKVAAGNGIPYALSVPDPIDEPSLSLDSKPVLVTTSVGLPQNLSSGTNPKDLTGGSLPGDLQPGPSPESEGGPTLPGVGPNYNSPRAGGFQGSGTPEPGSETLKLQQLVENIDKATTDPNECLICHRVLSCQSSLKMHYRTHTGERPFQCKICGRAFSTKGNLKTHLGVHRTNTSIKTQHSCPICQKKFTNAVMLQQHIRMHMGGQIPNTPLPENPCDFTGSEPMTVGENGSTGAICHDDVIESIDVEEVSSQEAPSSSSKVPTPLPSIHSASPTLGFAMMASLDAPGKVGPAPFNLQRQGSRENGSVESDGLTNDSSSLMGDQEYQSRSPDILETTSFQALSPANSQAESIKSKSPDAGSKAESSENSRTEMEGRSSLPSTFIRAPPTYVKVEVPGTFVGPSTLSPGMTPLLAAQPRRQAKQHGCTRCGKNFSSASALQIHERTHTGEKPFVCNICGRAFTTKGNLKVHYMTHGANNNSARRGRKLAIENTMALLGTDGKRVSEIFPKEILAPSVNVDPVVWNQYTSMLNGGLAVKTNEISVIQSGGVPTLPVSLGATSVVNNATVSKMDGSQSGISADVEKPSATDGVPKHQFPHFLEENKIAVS
Notes: 8-mer, flanks averaged, mean of replicates
Strand	E-score
GCAGGTAA	0.101
GCTTGACC	-0.263
GGGTCTTA	-0.144
TCTGCTAA	0.0362
CCGGCGCA	-0.283
AAACCGGT	-0.185
AAGTAGCG	-0.0911
ACTAGGAC	-0.0964
CTACCTCA	-0.185
AATTCGAG	0.0781
CCAAGTGC	-0.179
CACAGGCC	-0.12
GGCGGGAA	-0.104
ATACACGC	0.0749
ATACCACC	-0.0319
GAGCGAGA	-0.0425
GCCTGAAC	-0.236
AGCAGGCA	-0.169
TACGTCGA	-0.0347

For quick reference, copied from above (sample 2):
Strand	RBNS enrichment (R)
UCCCCUGCUAGAUGAUUCACCCACAAACCUUCCCACCCAGGUGUUCUCUGAAAGCUUAGCCUCAAGGGAACACCUAAAGAGCUCCCCUACAUAGACUCCUGCCUCCAGGU	1.04
AAAUCCCCAUAAAUAUCCAUCCCUUCCUAGAUGGCAUUAACUUUCAUUUUAGAUUUUAGGUGACUCAUAAUUCCCAUUCACUUAGCCUAUCAGAAAAGUCAUUGGCAGAC	0.536
UCAUGAUGGUAUGUGAAUAUGUGUGUAUGUUGCAAACAGGAAAUGCACUUGUAAACAUACGACAUGAUGUUAAAAUUGAAAGCAGGACUGAACUAACGUAUUCAAUAUUG	1.32
CGCACUGAGAACGCCUGCCAGCUUCCCCAUGCCCUCACUUGGUUUGUGUUUUAGGUUAAGUAGUCAAUGCCCACAUCACUUCACUGUCUCAAGACUGAGCACUUCACUAA	0.486
ACCAGCUUCUGGGGCUCACUGCAGUCUUCCCUGGGUCUUCCCUUCAAAUGCCCAUGGCGUUUAUCCUUCUCCCUCUCUAGAAAUGUACUCGACUGUUAUAACGAGGGAGU	0.296
UACCGAUGCUUAAUUUACAUUUUUGGAGUUGAAUAUUAUUCCGGUGCCUCCACCACCCCCAGCAGAAAAAAUAAGAUACUGAAAUAAGUUGAGUCAUUUCGCAAACAUUU	0.424
